Published values pooled from the literature.
Every numbered part comes from another study and shows a few of its results, in no order. Positions count from the first letter of the parent shown.

Series 1
Target: tungstate, free oxyanion
Technique: microfluidic competitive inhibition
Sample: in vitro, cell-free expressed
Tested at: not given
Setting: derived from inhibition constants, unchanged parent 2230 nM
Direction: lower = stronger binding
Parent: PafA, mature enzyme, eGFP fusion (Elizabethkingia meningoseptica, UniProt Q9KJX5); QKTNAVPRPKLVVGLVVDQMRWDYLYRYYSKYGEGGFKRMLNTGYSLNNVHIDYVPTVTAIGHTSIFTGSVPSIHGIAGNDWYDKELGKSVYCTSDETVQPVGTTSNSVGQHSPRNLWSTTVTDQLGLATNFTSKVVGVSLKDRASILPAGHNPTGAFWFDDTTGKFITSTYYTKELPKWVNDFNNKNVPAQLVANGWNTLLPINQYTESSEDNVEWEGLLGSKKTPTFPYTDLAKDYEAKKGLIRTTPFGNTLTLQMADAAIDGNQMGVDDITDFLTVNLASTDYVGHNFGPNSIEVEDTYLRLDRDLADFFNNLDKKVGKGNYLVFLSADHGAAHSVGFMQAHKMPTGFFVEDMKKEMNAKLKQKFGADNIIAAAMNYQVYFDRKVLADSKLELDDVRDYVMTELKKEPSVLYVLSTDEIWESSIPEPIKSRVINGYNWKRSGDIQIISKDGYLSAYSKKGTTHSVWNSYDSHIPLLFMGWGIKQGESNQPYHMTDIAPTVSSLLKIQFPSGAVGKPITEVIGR
Change	oxyanion analog dissociation constant
D306G	0.94 µM
K442G	2.4 µM
Q510V	2.32 µM

Series 2
Target: Histone acetyltransferase KAT6A, winged helix 2, GST fusion (KAT6A, Homo sapiens, UniProt Q92794, residues 85-181)
Technique: protein binding microarray
Molecule type: double-stranded DNA, one strand shown
Sample: in vitro
Tested at: not given
Setting: 8-mer, flanks averaged, mean of 2 arrays, mostly near background
Relative to: not given
Direction: higher = stronger binding
Construct (chain): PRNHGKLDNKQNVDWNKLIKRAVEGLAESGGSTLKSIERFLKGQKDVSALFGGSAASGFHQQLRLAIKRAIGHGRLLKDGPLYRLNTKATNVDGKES
Strand	E-score
ACTCCCCT	0.0275
GTTATAGA	-0.00429
ATCCATTG	-0.121
ACAAGACC	0.0458
AACGACTG	-0.109
CGCCAACA	0.143
ATCTAGTC	-0.213
TAGACACA	-0.106

Series 3
Target: CCNB1, cyclin fold, Cln2 fusion (human)
Technique: yeast growth competition, sequencing
Sample: yeast
Setting: strong parent motif
Relative to: not given
Direction: higher = stronger binding
Parent: viral docking peptide; YKVKRRLVFGADD; partner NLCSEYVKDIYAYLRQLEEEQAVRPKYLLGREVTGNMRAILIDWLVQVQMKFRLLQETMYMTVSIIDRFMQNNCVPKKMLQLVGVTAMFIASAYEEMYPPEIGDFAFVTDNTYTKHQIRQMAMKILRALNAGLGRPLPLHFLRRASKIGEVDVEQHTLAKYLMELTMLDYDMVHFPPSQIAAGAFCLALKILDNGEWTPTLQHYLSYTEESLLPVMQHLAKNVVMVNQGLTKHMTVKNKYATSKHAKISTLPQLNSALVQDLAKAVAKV
Change	normalised enrichment score
YKVCRRLVFGADD [K4C]	4.37
YKVKRDLVFGADD [R6D]	0.259
YKVKRRRVFGADD [L7R]	1.03
YKVKRGLVFGADD [R6G]	0.421
YKVKRRLVRGADD [F9R]	0.044
YKVARRLVFGADD [K4A]	2.88
YKPKRRLVFGADD [V3P]	0.762
YKVKRRLVFDADD [G10D]	5.53
YKVKWRLVFGADD [R5W]	0.514
YKVKRRLVFGVDD [A11V]	3.62
YYVKRRLVFGADD [K2Y]	3.3
YKVKRRLVFKADD [G10K]	2.7
YKVKRRLVFGACD [D12C]	2.67
YPVKRRLVFGADD [K2P]	4.49
YKVHRRLVFGADD [K4H]	2.63
YKSKRRLVFGADD [V3S]	0.465
YKVKRRLVFGAYD [D12Y]	2.1

Series 4
Target: CRIPT, C-terminal peptide
Technique: DHFR complementation, deep sequencing
Sample: yeast
Setting: single substitutions, model-inferred values
Relative to: wild type
Direction: higher = weaker binding
Parent: ERBIN, PDZ domain 1 (human); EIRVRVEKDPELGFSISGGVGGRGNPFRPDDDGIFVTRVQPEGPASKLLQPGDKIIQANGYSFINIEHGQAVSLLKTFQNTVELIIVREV; partner TKNYKQTSV
Change	binding free energy change [kcal/mol]
E7P	0.209
R38V	-0.0216
G19H	1.32
I56V	-0.0264
E42F	0.146
D9A	-0.149
G69K	0.284
P10W	-0.36

Other studies, line by line
Substance	partner	technique	sample	together with	quantity	value
RFC2 (Homo sapiens, UniProt P35250)	RFC5 (Homo sapiens, UniProt P40937)	cross-linking MS	cell fractions	DSSO	cross-linked residues	K99 to K144

For quick reference, copied from above (series 2):
Strand	E-score
CGCCAACA	0.143
GTTATAGA	-0.00429
